Experimental data collected from several papers.
± marks the error that the study gave.
lasR: Transcriptional activator protein LasR (lasR, Pseudomonas aeruginosa, UniProt P25084)
KLRK1 with MICA: NKG2-D type II integral membrane protein, with MICA (KLRK1, Homo sapiens, UniProt P26718)
UniProt P26718, sequence (whole entry, looked up): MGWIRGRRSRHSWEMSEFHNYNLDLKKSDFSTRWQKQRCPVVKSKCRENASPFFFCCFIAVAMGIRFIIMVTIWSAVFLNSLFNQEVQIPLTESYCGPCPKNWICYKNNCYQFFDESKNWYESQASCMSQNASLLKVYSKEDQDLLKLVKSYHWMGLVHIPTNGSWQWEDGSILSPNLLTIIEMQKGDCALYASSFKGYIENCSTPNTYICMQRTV
UniProt P61073, sequence (whole entry, unmodified, looked up): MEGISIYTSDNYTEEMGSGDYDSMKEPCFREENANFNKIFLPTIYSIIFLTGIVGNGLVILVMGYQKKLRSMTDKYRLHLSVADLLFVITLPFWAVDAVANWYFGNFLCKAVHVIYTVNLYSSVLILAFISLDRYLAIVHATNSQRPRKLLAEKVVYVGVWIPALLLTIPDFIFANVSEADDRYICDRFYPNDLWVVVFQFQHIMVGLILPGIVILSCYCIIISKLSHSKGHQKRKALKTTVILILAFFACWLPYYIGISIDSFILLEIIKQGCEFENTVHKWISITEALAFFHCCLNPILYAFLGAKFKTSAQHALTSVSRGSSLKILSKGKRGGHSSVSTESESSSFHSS
UniProt P21564, sequence (whole entry, unmodified, looked up): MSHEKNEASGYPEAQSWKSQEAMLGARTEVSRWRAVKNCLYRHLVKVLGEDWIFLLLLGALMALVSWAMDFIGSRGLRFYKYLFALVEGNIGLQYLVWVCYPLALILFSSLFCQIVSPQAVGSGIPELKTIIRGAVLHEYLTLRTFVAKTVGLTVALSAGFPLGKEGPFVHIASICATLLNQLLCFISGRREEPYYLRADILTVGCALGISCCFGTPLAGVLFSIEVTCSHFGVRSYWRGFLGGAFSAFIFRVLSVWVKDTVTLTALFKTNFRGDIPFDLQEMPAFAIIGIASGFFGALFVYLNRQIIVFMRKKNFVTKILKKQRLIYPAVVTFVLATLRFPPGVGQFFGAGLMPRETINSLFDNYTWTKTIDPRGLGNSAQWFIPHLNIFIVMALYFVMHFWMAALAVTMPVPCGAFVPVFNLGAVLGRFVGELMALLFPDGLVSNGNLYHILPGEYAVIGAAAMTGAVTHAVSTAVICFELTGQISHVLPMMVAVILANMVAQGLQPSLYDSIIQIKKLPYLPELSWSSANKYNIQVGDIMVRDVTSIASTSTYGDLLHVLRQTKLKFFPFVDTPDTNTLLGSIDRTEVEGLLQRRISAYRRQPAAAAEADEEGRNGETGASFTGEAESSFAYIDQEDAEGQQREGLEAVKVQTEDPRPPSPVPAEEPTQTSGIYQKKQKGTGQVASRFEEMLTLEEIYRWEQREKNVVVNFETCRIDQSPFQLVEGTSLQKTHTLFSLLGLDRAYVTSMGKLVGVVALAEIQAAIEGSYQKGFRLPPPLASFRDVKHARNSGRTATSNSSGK
UniProt O15294, sequence (whole entry, looked up): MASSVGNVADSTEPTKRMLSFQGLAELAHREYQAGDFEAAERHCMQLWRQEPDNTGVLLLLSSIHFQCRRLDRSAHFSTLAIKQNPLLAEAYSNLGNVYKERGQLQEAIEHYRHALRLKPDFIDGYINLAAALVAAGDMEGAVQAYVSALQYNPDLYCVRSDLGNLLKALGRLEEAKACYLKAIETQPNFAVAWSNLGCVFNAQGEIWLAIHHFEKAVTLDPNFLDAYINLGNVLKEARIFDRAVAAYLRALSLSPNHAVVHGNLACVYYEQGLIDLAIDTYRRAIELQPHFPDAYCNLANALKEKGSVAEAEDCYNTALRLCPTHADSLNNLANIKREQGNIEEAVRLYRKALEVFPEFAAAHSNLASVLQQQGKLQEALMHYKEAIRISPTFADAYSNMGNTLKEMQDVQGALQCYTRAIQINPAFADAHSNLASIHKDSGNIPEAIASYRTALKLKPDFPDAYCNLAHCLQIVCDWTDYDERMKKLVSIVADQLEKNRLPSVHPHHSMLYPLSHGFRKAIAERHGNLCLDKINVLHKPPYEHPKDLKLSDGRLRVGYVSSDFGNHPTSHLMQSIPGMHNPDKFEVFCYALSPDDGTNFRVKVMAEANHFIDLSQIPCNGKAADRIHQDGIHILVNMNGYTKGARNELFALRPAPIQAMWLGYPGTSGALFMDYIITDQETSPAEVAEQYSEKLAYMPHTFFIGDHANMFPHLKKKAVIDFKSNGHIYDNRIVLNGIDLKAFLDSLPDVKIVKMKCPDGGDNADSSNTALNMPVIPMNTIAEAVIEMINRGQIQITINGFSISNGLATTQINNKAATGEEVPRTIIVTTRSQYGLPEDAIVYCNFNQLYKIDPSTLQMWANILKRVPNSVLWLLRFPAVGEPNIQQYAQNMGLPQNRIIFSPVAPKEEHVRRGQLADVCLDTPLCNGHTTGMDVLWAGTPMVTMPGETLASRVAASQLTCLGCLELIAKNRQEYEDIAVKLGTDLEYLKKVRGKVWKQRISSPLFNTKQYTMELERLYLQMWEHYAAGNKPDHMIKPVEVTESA
UniProt Q06520, sequence (whole entry, looked up): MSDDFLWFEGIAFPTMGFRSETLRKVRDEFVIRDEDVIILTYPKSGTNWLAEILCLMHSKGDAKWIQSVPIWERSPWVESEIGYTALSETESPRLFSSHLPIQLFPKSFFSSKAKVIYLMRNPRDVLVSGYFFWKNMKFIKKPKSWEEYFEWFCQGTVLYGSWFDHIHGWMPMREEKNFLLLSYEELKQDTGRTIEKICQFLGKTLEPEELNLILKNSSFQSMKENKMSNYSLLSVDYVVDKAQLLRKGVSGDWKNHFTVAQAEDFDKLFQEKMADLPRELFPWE
UniProt O43526, sequence (whole entry, looked up): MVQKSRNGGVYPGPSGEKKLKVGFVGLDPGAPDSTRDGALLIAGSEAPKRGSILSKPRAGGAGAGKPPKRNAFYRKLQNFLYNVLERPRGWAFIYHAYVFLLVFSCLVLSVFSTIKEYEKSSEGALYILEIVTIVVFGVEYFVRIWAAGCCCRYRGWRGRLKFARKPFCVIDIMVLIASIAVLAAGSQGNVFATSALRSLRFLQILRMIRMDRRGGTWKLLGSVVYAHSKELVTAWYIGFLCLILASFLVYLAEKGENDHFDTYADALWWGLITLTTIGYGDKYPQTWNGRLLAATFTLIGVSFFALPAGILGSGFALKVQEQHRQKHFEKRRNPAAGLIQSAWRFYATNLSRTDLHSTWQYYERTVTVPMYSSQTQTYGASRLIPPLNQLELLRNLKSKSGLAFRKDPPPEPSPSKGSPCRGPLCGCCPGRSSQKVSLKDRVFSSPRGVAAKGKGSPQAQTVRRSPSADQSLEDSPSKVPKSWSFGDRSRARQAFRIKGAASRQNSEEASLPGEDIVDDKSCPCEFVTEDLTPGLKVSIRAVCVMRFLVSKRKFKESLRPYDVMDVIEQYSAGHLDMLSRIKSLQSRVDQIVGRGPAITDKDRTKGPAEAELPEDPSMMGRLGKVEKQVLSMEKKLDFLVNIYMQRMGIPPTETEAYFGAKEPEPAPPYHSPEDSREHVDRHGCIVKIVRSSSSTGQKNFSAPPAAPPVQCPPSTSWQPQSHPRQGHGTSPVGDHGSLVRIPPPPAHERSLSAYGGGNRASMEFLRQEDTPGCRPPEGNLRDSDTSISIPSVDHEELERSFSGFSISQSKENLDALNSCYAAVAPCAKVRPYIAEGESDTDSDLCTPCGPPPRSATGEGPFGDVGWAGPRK
UniProt P30559, sequence (whole entry, looked up): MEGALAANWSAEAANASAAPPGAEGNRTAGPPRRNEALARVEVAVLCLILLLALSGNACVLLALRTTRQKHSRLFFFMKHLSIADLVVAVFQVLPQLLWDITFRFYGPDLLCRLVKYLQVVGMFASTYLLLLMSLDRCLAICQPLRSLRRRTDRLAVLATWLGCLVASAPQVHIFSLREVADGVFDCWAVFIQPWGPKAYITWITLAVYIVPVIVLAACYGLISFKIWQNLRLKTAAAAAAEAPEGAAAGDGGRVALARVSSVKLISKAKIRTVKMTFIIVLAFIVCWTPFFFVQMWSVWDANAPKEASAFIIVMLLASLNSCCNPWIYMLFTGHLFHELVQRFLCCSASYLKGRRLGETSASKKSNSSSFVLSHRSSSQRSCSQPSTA
UniProt O43525, sequence (whole entry, looked up): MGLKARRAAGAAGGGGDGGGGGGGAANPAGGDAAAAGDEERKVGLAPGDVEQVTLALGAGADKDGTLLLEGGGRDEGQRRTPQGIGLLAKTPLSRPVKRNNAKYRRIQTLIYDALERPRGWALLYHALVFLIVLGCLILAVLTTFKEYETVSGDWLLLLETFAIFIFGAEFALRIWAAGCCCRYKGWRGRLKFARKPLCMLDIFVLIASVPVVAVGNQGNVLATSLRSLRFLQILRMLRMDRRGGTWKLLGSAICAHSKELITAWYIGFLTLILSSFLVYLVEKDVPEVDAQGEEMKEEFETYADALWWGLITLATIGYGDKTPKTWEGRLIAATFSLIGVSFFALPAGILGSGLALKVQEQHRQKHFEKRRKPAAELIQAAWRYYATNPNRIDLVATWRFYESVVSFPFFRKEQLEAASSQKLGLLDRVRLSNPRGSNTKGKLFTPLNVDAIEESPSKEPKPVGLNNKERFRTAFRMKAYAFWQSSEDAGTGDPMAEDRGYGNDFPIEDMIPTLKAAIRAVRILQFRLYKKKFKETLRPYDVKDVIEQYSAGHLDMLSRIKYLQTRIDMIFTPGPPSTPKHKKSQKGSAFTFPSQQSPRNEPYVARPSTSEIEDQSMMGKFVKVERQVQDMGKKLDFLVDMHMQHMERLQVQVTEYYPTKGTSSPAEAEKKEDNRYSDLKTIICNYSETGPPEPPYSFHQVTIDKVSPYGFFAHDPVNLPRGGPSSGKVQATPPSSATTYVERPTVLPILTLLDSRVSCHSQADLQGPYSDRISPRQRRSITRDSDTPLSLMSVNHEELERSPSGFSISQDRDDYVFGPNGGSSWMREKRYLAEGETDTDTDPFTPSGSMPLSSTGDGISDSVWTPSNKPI

| Structure (SMILES) | target | assay | system | conditions | how to read | quantity | value |
| --- | --- | --- | --- | --- | --- | --- | --- |
| Nc1c2c([n+](CCCCCCCCCC[n+]3c4c(c(N)c5ccccc53)CCC4)c3ccccc13)CCC2 | 2F5 Fab | SPR |  | concentration not given |  | binding | no binding |
| O=C(O)COc1ccc(Cl)cc1 | Chloride channel protein (Torpedo marmorata, UniProt P21564, C212S/E166C/K519E) | macroscopic current block, inhibitor, inside-out patch clamp | HEK293 | -160 mV |  | koff | 9.5 s⁻¹ |
| C[C@]12CC[C@H](O)CC1CCC1C2[C@H](O)C(=O)[C@]2(C)[C@@H](c3ccc(=O)oc3)CC[C@]12O (stereo partly drawn) | SULT2A1 (Homo sapiens, UniProt Q06520) | sulfation, substrate | human liver cytosol | concentration not given, anti-SULT2A1 immunoprecipitation | relative to: control cytosol | remaining activity | 54% |
| CCN(Cc1ccccc1)C(=O)CCc1nc(CN2CCN(C(=O)Cc3ccc(OC)c(OC)c3)CC2)no1 | Scn10a (Rattus norvegicus, UniProt Q62968) | sodium current, inhibitor, whole-cell patch clamp | rat DRG neurons | 300 nM, holding at -10 mV |  | current density | -14.1 ± 4.21 pA/pF |
| CC[C@H](C)[C@@H]1NC(=O)[C@H](Cc2ccc(O)cc2)NC(=O)[C@@H](N)CSSC[C@@H](C(=O)N2CCC[C@H]2C(=O)N2CCC[C@H]2C(=O)NCC(N)=O)NC(=O)[C@H](CC(N)=O)NC(=O)[C@H](CCC(N)=O)NC1=O | Oxytocin receptor (OXTR, Homo sapiens, UniProt P30559) | membrane hyperpolarization, agonist | CHO |  | relative to: compound over vasopressin | potency ratio | ~4 |
| C[C@]1(COC(=O)Cc2ccc(O)c(O)c2)[C@H](C(=O)O)N2C(=O)/C(=C/c3ccccn3)[C@H]2S1(=O)=O | Beta-lactamase (ampC, Pseudomonas aeruginosa, UniProt P24735) | enzyme activity, inhibitor, absorbance |  |  |  | kinact/KI | 630000 M⁻¹ s⁻¹ |
| O=C(Nc1ccccc1NC(=O)c1cccc(Cl)c1)c1cccc(Cl)c1 | lasR | reporter gene, antagonist | PAO-JP2 plasI-LVAgfp |  |  | Hill slope | -3 |
| CCCCC/C=C\C/C=C\C/C=C\C/C=C\CCCC(=O)NC(CO)C(=O)O (stereo in doubt) | Voltage-gated potassium channel, KQT; KCNQ2(Kv7.2)/KCNQ3(Kv7.3) (KCNQ3/KCNQ2, Homo sapiens, UniProt O43525+O43526) | two-electrode voltage clamp | Xenopus oocytes | 10 and 100 µM |  | maximal conductance | increased |
| CCCCCCc1cn(-c2cccc(C(=O)N[C@H]3CCOC3=O)c2)nn1 | lasR | reporter gene, agonist | Escherichia coli DH5α pJN105L/pSC11 | 10 µM | relative to: OdDHL 100 µM | activation | 0% |
| CC(C)C[C@@H](N)C(=O)NCC(=O)N[C@H](C)C(=O)N[C@H](CO)C(=O)N[C@H](Cc1c[nH]c2ccccc12)C(=O)N[C@H](Cc1c[nH]cn1)C(=O)N[C@H](CCCNC(=N)N)C(=O)N1CCC[C@@H]1C(=O)N[C@H](CC(=O)O)C(=O)N[C@H](CCCCN)C(N)=O | CXCR4 (Homo sapiens, UniProt P61073, D97A) | antibody 12G5 binding |  | concentration not given, D97A mutant vs wild type |  | binding affinity change | decreased |
| Cc1cccc([C@H](NC(=O)c2cnccc2-c2ccc(C(F)(F)F)cc2)C(=O)N(C)C)c1 | NKG2-D type II integral membrane protein, with ULBP6 (KLRK1, Homo sapiens, UniProt P26718) | ligand binding, inhibitor, TR-FRET | HEK293 expressing NKG2D and DAP10 | with: ULBP6-AF647 | relative to: positive control | maximum inhibition | 98% |
| O=C(N[C@H]1CCOC1=O)c1ccc(-n2cc(-c3cc(F)cc(F)c3)nn2)cc1 | lasR | reporter gene, agonist | Escherichia coli DH5α pJN105L/pSC11 | 10 µM | relative to: OdDHL 100 µM | activation | 0% |
| COP(=O)(O)O | Alkaline phosphatase PafA (pafA, Elizabethkingia meningoseptica, UniProt Q9KJX5, T79S) |  | Chryseobacterium meningosepticum | pH 8.0 | relative to: wild type over mutant kcat/KM | relative catalytic efficiency | 22 |
| CC(C)C[C@H](NC(=O)[C@@H]1CCCN1C(=O)[C@H](CCCCN)NC(=O)c1ccc(O[C@@H]2O[C@H](CO)[C@H](O)[C@H](O)[C@H]2O)cc1)C(=O)NCCCC[C@H](NC(=O)[C@H](CC(C)C)NC(=O)[C@@H]1CCCN1C(=O)[C@H](CCCCN)NC(=O)c1ccc(O[C@@H]2O[C@H](CO)[C@H](O)[C@H](O)[C@H]2O)cc1)C(=O)N[C@@H](Cc1ccccc1)C(=O)N[C@@H](CS)C(N)=O | lecA (Pseudomonas aeruginosa, UniProt Q05097) | binding, isothermal titration calorimetry |  | divided by galactoside copies | relative to: monovalent galactoside KD over ligand KD | relative potency per galactoside | 9 |
| CC[C@H](C)[C@H](NC(=O)CN)C(=O)N[C@@H](CC(C)C)C(=O)N[C@@H](CCCCN)C(=O)N[C@@H](Cc1ccccc1)C(=O)N[C@@H](CC(C)C)C(=O)N[C@@H](CCC(=O)O)C(=O)N[C@@H](CO)C(=O)N[C@@H](C)C(=O)N[C@@H](CCCCN)C(=O)N[C@@H](CCCCN)C(=O)N[C@@H](Cc1c[nH]c2ccccc12)C(=O)N[C@@H](CC(C)C)C(=O)N[C@@H](CCC(=O)O)C(=O)N[C@@H](C)C(=O)N[C@@H](Cc1ccccc1)C(=O)N[C@@H](CC(C)C)C(=O)N[C@@H](C)C(=O)N[C@@H](CCC(=O)O)C(=O)N[C@H](C(=O)N[C@@H](CCSC)C(=O)N[C@@H](CC(N)=O)C(=O)N[C@@H](CO)C(=O)O)[C@@H](C)CC | POPC membrane | membrane binding, stopped-flow FRET |  | mole fraction units, room temperature |  | binding free energy | -7.4 kcal/mol |
| CN(C)C(=O)[C@@H](NC(=O)c1cc(-c2ccnn2C)ccc1-c1ccc(C(F)(F)F)cc1)c1cccc(C(F)(F)F)c1 | KLRK1 with MICA | cellular TR-FRET binding |  | pIC50 minus ChromLogD |  | lipophilic ligand efficiency | 2.9 |
| CC(C)P(=[Se])(NP(=[Se])(C(C)C)C(C)C)C(C)C | Alpha-amylase (Bacillus subtilis, UniProt P00691) | binding, FRET |  | 298 K |  | donor–acceptor distance | 3.42 nm |
| CC(C)C[C@@H](N)C(=O)NCC(=O)N[C@H](C)C(=O)N[C@H](CO)C(=O)N[C@H](Cc1c[nH]c2ccccc12)C(=O)N[C@H](Cc1c[nH]cn1)C(=O)N[C@H](CCCNC(=N)N)C(=O)N1CCC[C@@H]1C(=O)N[C@H](CC(=O)O)C(=O)N[C@H](CCCCN)C(=O)N[C@H](CSSC[C@@H](NC(=O)[C@@H](CCCCN)NC(=O)[C@@H](CC(=O)O)NC(=O)[C@H]1CCCN1C(=O)[C@@H](CCCNC(=N)N)NC(=O)[C@@H](Cc1c[nH]cn1)NC(=O)[C@@H](Cc1c[nH]c2ccccc12)NC(=O)[C@@H](CO)NC(=O)[C@@H](C)NC(=O)CNC(=O)[C@H](N)CC(C)C)C(=O)N[C@H](C)C(=O)N[C@H](CC(C)C)C(=O)NCC(=O)N[C@H](Cc1ccc(O)cc1)C(=O)N[C@H](CCC(N)=O)C(=O)N[C@H](CCCCN)C(=O)N[C@H](CCCNC(=N)N)C(=O)N1CCC[C@@H]1C(=O)N[C@H](CC(C)C)C(=O)N1CCC[C@@H]1C(N)=O)C(=O)N[C@H](C)C(=O)N[C@H](CC(C)C)C(=O)NCC(=O)N[C@H](Cc1ccc(O)cc1)C(=O)N[C@H](CCC(N)=O)C(=O)N[C@H](CCCCN)C(=O)N[C@H](CCCNC(=N)N)C(=O)N1CCC[C@@H]1C(=O)N[C@H](CC(C)C)C(=O)N1CCC[C@@H]1C(N)=O | CXCR4 (Homo sapiens, UniProt P61073, Y45A) |  | 293 cells | 300 nM, with: 12G5 antibody 5 µg/mL | relative to: wild type | binding decrease | 20% |
| CN(C)C(=O)[C@@H](NC(=O)c1cnccc1-c1ccc(C(F)(F)F)cc1)c1cc(C(F)(F)F)cc(C(F)(F)F)c1 | KLRK1 with MICA | ligand binding, inhibitor, TR-FRET | HEK293 expressing NKG2D and DAP10 | with: MICA-Alexa647 | relative to: positive control | maximum inhibition | 102% |
| CC[C@H](C)[C@H](NC(=O)[C@H](CO)NC(=O)[C@H](Cc1ccc(O)cc1)NC(=O)[C@H](CCCCN)NC(=O)[C@@H]1CCCN1C(=O)[C@H](CCSC)NC(=O)[C@H](Cc1ccccc1)NC(=O)[C@H](CCSC)NC(=O)[C@@H](NC(=O)[C@@H]1CCCN1C(=O)[C@H](Cc1ccccc1)NC(=O)[C@H](CC(=O)O)NC(=O)CN)C(C)C)C(=O)O | OGT (Homo sapiens, UniProt O15294) | enzyme activity, fluorescence activity |  |  |  | highest concentration without inhibition | > 200 µM |
| O=C(O)c1cc(Cl)cc(NC(=O)C(F)(F)F)c1 | Amyloid-beta precursor protein, amyloid-beta 1-40 oligomers (APP, Homo sapiens, UniProt P05067) | binding, STD NMR |  | highest STD |  | STD NMR signal | 0.75% |

A few entries again:
| Structure (SMILES) | target | assay | system | conditions | how to read | quantity | value |
| --- | --- | --- | --- | --- | --- | --- | --- |
| CN(C)C(=O)[C@@H](NC(=O)c1cc(-c2ccnn2C)ccc1-c1ccc(C(F)(F)F)cc1)c1cccc(C(F)(F)F)c1 | KLRK1 with MICA | cellular TR-FRET binding |  | pIC50 minus ChromLogD |  | lipophilic ligand efficiency | 2.9 |
| CC(C)P(=[Se])(NP(=[Se])(C(C)C)C(C)C)C(C)C | Alpha-amylase (Bacillus subtilis, UniProt P00691) | binding, FRET |  | 298 K |  | donor–acceptor distance | 3.42 nm |
| CC(C)C[C@@H](N)C(=O)NCC(=O)N[C@H](C)C(=O)N[C@H](CO)C(=O)N[C@H](Cc1c[nH]c2ccccc12)C(=O)N[C@H](Cc1c[nH]cn1)C(=O)N[C@H](CCCNC(=N)N)C(=O)N1CCC[C@@H]1C(=O)N[C@H](CC(=O)O)C(=O)N[C@H](CCCCN)C(=O)N[C@H](CSSC[C@@H](NC(=O)[C@@H](CCCCN)NC(=O)[C@@H](CC(=O)O)NC(=O)[C@H]1CCCN1C(=O)[C@@H](CCCNC(=N)N)NC(=O)[C@@H](Cc1c[nH]cn1)NC(=O)[C@@H](Cc1c[nH]c2ccccc12)NC(=O)[C@@H](CO)NC(=O)[C@@H](C)NC(=O)CNC(=O)[C@H](N)CC(C)C)C(=O)N[C@H](C)C(=O)N[C@H](CC(C)C)C(=O)NCC(=O)N[C@H](Cc1ccc(O)cc1)C(=O)N[C@H](CCC(N)=O)C(=O)N[C@H](CCCCN)C(=O)N[C@H](CCCNC(=N)N)C(=O)N1CCC[C@@H]1C(=O)N[C@H](CC(C)C)C(=O)N1CCC[C@@H]1C(N)=O)C(=O)N[C@H](C)C(=O)N[C@H](CC(C)C)C(=O)NCC(=O)N[C@H](Cc1ccc(O)cc1)C(=O)N[C@H](CCC(N)=O)C(=O)N[C@H](CCCCN)C(=O)N[C@H](CCCNC(=N)N)C(=O)N1CCC[C@@H]1C(=O)N[C@H](CC(C)C)C(=O)N1CCC[C@@H]1C(N)=O | CXCR4 (Homo sapiens, UniProt P61073, Y45A) |  | 293 cells | 300 nM, with: 12G5 antibody 5 µg/mL | relative to: wild type | binding decrease | 20% |
